Measured values pooled from the literature.
Lines come from different studies, so protocols differ. Several values in a cell are separate wells, animals, samples, runs or records. ± marks the error that the study gave.

SMILES | cell line | test | setting | scale | measurement | result
O=C(NCc1ccc(OC(F)(F)F)cc1)[C@H]1CCCN(c2ncnc3[nH]c(-c4cccs4)cc23)C1 | NCI-H2228 | cell growth or viability, MTT | 5 µg/mL, 72 h |  | inhibition | 74.6%
O=C(C[Se]C(=O)c1cc2ccccc2[nH]1)Nc1cccc(C(F)(F)F)c1 | NCI60 NSCLC subpanel | NCI60 five-dose screen |  |  | GI50 | 1.33 µM
Cc1ncsc1-c1ccc(C(C)NC(=O)C2CC(O)CN2C(=O)C(NC(=O)CCCCCCCCCCN2CCCC(Nc3ncc(Cl)c(Nc4ccccc4S(=O)(=O)C(C)C)n3)C2)C(C)(C)C)cc1 (stereo not shown) | 22Rv1 | RNA-seq, refers to: PIM1 mRNA | concentration not given | reference: DMSO | log2 fold change | -1.89
CCN(CC)CC(=O)Nc1cccc(-n2cc(-c3ccc4ccc(-c5cn(-c6cccc(NC(=O)CN(CC)CC)c6)nn5)cc4c3)nn2)c1 | RCC4 | PCR angiogenesis array, refers to: IL6 | 5 x IC50, 2 h, normoxia | reference: untreated | fold regulation | 1.07
O=C(NCc1ccc(OC(F)(F)F)cc1)[C@H]1CCCN(c2ncnc3[nH]c(-c4ccc(N5CCOCC5)cc4)cc23)C1 | NCI-H2228 | cell growth or viability, MTT | 5 µg/mL, 72 h |  | inhibition | 81.7%
COc1cc(N2CCN(C(=O)C3CCCN3)CC2)ccc1Nc1ncc(Cl)c(Nc2ccccc2P(C)(C)=O)n1 (stereo not shown) | NCI-H3122 | CCK-8 | 2.5 nM, 48 h |  | viability | 88%
CCCCCCCCCCCC(=O)N[C@@H](CO)C[C@@H](O)c1cccc(CCCCCC)c1 | HeLa | CERT activity, HPLC-MS/MS lipidomics, refers to: ceramide 22 | 1 µM, 24 h, not cell-number normalised |  | ceramide level | 1940 pmol/sample and 2520 pmol/sample and 1660 pmol/sample
COC(=O)c1cc(NC2=NC(=O)C(=Cc3ccc(N(C)C)cc3)S2)ccc1OC(C)=O | A549 | refers to: ACTR8 mRNA | 2.93 µM (IC50), 24 h | reference: DMSO | fold change | 0.0114
COc1ccc2c(c1)OC1=C(C(=O)CCC1)C2c1c[nH]c2ccccc12 (stereo not shown) | mouse preadipocytes | qPCR, refers to: IRS-1 | IC20, 14 days, adipogenic induction | reference: untreated cells | mRNA level | decreased
CNS(=O)(=O)Nc1nccc(Cc2c(C)c3ccc(Oc4ncccc4F)cc3oc2=O)c1F | CAKI-2 | cell viability | 7 days |  | IC50 | > 1 µM
Cc1cc(N)ccc1-c1cc2c(N3CCC[C@H](C(=O)NCc4ccc(OC(F)(F)F)cc4)C3)ncnc2[nH]1 | NCI-H2228 | cell growth or viability, MTT | 0.04 µg/mL, 72 h |  | inhibition | 56.4%
COc1ccccc1-c1ccncc1C(=O)Nc1ccc(OCc2ccc(Cl)cc2)nn1 | DLD-1 BRCA2-/- |  | 20 µM | reference: untreated | colony survival | 96% and 100%
Cn1c(=O)n(C2CCC(=O)NC2=O)c2ccc(C3CCN(CC(=O)Nc4cccc(CS(=O)(=O)N5CC[C@H](Nc6cccc(-c7sc(C(=O)O)c(OCC(=O)O)c7Cl)c6)CC5(C)C)c4)CC3)cc21 (stereo partly shown) | B16-F10 | HTRF, refers to: phospho-STAT1 Tyr701 | 0.041 µM, with: IFN-γ | reference: DMSO | fold change | 3.99 and 4.34 and 3.89 and 4.33 and 4.03 and 4.31
N=C(S)N/N=C/c1ncc(C(F)(F)F)cc1Cl | LDR | silenced CMV-GFP reporter derepression, qHTS |  |  | efficacy | 138%
CCCC[C@H](NC(=O)[C@H](CC(C)C)NC(=O)[C@H](CO)NC(=O)[C@H](CO)NC(=O)[C@H](C)NC(=O)[C@H](CO)NC(=O)[C@H](C)N)C(=O)N[C@@H](CC(=O)O)C(=O)N[C@@H](CCCCN)C(=O)N[C@@H](CCC(=O)O)C(=O)N[C@@H](C)C(=O)N[C@H](C(=O)N[C@@H](Cc1ccc(O)cc1)C(=O)N[C@@H](Cc1ccccc1)C(=O)N[C@@H](C)C(=O)N[C@@H](Cc1c[nH]cn1)C(=O)N[C@@H](CC(C)C)C(=O)N[C@@H](CC(=O)O)C(=O)N[C@H](C(=O)N[C@H](C(=O)N[C@@H](Cc1c[nH]c2ccccc12)C(=O)O)[C@@H](C)CC)[C@@H](C)CC)C(C)C | COS-7 ETBR-GFP | calcium flux, agonist | ETBR/ETAR ratio 1:2 |  | Emax | 61 ± 6%
CCN(C(=O)c1cc(F)ccc1Oc1nncnc1N1CCC2(C1)CN([C@H](CCCN(C)CCOC)C(C)C)C2)C(C)C | SU-DHL10 | cell growth or viability | 7 days |  | GI50 | > 10 µM
O=C(N/N=C/c1ccccn1)c1cc(-c2ccc(Cl)cc2)nc2ccccc12 | LDR | silenced CMV-GFP reporter derepression, qHTS |  |  | EC50 | 5.01 µM
Cc1cc(NC2CCN(C)CC2)ccc1-c1cc2c(N3CCC[C@H](C(=O)N4CCCC4)C3)ncnc2[nH]1 | NCI-H2228 | cell growth or viability, MTT | 0.04 µg/mL, 72 h |  | inhibition | 10%
CN1CCCNC(=O)c2cccc(c2)C(=O)NCCCN(C)CCCNc2cccc3c2C(=O)c2cccc(c2C3=O)NCCC1 | SAS | RNA-Seq, refers to: KPNA4 mRNA | 1 µM, 6 h | reference: untreated cells | log2 fold change | -1.41

Repeated from above:
SMILES | cell line | test | setting | scale | measurement | result
O=C(N/N=C/c1ccccn1)c1cc(-c2ccc(Cl)cc2)nc2ccccc12 | LDR | silenced CMV-GFP reporter derepression, qHTS |  |  | EC50 | 5.01 µM
CNS(=O)(=O)Nc1nccc(Cc2c(C)c3ccc(Oc4ncccc4F)cc3oc2=O)c1F | CAKI-2 | cell viability | 7 days |  | IC50 | > 1 µM
